Measured values from different studies.
Compare with care: the assays were run in different laboratories.
ADORA2A: Adenosine receptor A2a (ADORA2A, Homo sapiens, UniProt P29274)

`CC(=O)Nc1ccc(-c2c(C#N)c(N)nc(SCc3ccccc3)c2C#N)cc1` has a Ki of 0.027 µM (ADORA2A; ligand displacement, radioligand; cell membranes).
The Ki of `Nc1ncnc2c1ncn2[C@@H]1O[C@H](C(=O)NC2COC2)[C@@H](O)[C@H]1O` is reported as 0.85 µM (ADORA2A; ligand displacement, radioligand; cell membranes).
With `N#Cc1c(N)nc(SCc2ncc[nH]2)c(C#N)c1-c1cccc(F)c1` the Ki was 0.043 µM (ADORA2A; ligand displacement, radioligand; cell membranes).
With `N#Cc1c(N)nc(SCc2ncc[nH]2)c(C#N)c1-c1ccc(O)cc1` the IC50 was 0.166 µM (Adenosine receptor A2a, Δ40 C-terminal truncation (ADORA2A, Homo sapiens, UniProt P29274); binding).
`CN(C(=O)c1ccn2ncc(-c3ccc(C(N)=O)cc3)c2c1)c1ccc(C#N)cn1` has an IC50 of over 30 µM (ADORA2A; ligand displacement).
For `CCNC(=O)C1OC(n2cnc3c(NC(CC)CC)nc(NCCNC(=O)Nc4cc[n+](C)cc4)nc32)C(O)C1O` (stereo not drawn), the EC50 was 0.000331 µM (ADORA2A; cAMP, agonist, luciferase).
With `Nc1ncnc2[nH]c(/C=C/c3ccc(F)cc3)nc12` the IC50 was over 392 µM (ADORA2A; cAMP, ELISA).
The EC50 of `CCNC(=O)C1OC(n2cnc3c(N)nc(NCCNC(=O)Nc4ccncc4)nc32)C(O)C1O` (stereo not drawn) is reported as 0.0295 µM (ADORA2A; cAMP, agonist, luciferase).
The IC50 of `Oc1ccc(Nc2ncnc3[nH]c(/C=C/c4ccccc4)nc23)cc1` is reported as 18.7 µM (ADORA2A; cAMP, ELISA).
`CCNC(=O)C1OC(n2cnc3c(NCC(C)C)nc(NCCNC(=O)Nc4ccncc4)nc32)C(O)C1O` (stereo not drawn) gave an EC50 of 0.000977 µM (ADORA2A; cAMP, agonist, luciferase).
For `Nc1nc(SCCc2ccc(S(=O)(=O)O)cc2)nc2c1ncn2C1OC(CO)C(O)C1O` (stereo not drawn), the EC50 was 0.00316 µM (ADORA2A; phosphorylation in cells, agonist, AlphaScreen).
For `Cc1ccc(/C=C/c2nc3c(N)ncnc3[nH]2)cc1`, the IC50 was over 398 µM (ADORA2A; cAMP, ELISA).
`CCNC(=O)C1OC(n2cnc3c(NCC(c4ccccc4)c4ccccc4)nc(NCCc4ccc(CCN)cc4)nc32)C(O)C1O` (stereo not drawn) has an EC50 of 0.182 µM (ADORA2A; cAMP, agonist, luciferase).
`NC(=O)CNC(=O)[C@H]1O[C@@H](n2cnc3c(N)ncnc32)[C@H](O)[C@@H]1O` has a Ki of 0.94 µM (ADORA2A; ligand displacement, radioligand; cell membranes).
`CCNC(=O)C1OC(n2cnc3c(N)nc(C(=O)NCCNC(=O)NC4CCN(c5ccccn5)CC4)nc32)C(O)C1O` (stereo not drawn) has an EC50 of 2 µM (ADORA2A; cAMP, agonist, luciferase).
With `Cc1ccccc1Nc1ncnc2[nH]c(/C=C/c3ccccc3)nc12` the IC50 was 19.9 µM (ADORA2A; cAMP, ELISA).
`CCNC(=O)C1OC(n2cnc3c(NCC(C)C)nc(NCCNC(=O)Nc4cc[n+](C)cc4)nc32)C(O)C1O` (stereo not drawn) has an EC50 of 0.000447 µM (ADORA2A; cAMP, agonist, luciferase).
The IC50 of `CN(C)c1ccc(/C=C/c2nc3c(N)ncnc3[nH]2)cc1` is reported as over 357 µM (ADORA2A; cAMP, ELISA).

For quick reference, copied from above:
For `Cc1ccc(/C=C/c2nc3c(N)ncnc3[nH]2)cc1`, the IC50 was over 398 µM (ADORA2A; cAMP, ELISA).
